Experimental data gathered from unrelated publications.
A part holds a random share of what one study measured.

Sample 1
Target: RNA binding protein fox-1 homolog 2, RRM domain, GST-SBP tag (RBFOX2, Homo sapiens, UniProt O43251-10, residues 100-194)
Technique: RNA Bind-n-Seq
Molecule type: RNA
Sample: in vitro
Concentration: 365 nM
Setting: natural RNA segment, single round, ends assumed
Reference: no-protein control
Direction: higher = stronger binding
All sequences stand within: GGGAGUUCUACAGUCCGACGAUC … UGGAAUUCUCGGGUGCCAA
Residues (chain): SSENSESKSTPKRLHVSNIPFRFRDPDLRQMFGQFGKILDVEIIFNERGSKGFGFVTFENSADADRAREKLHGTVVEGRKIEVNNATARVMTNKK
Sequence	RBNS enrichment (R)
UGGGCACUGGAGCUACCCAGAGGAAUGCACAACGCUCCCCUCAAGGAGCUCACAGUCUAGCCUACUCCCUGGCUGGAAGCCUCAGGAAGACGUGCUAAUUUAUUGUGGAA	0.661
UGAGAAGGUAAAGAAGAGGCAUGUCCAGUAUGCUUUGCAGGGUGUGUUUGCUCUUUUCCAUGCCCAUGCAACCCAGAUUGGGGUGGAGCAGGAAGGAGCUCUUUUCUGUU	0.511
UCCCCGUCGCAGACGGAGUGCACGUGCCCUGCGCCACAUCCUCACGCUCGGUGGAGGGACGCGUGCGGCGGGACGGUGCCUACGGGUACUUGCAGCUGUGUCCCAUGUGG	0.613
AGAAUGUGGUAUUGGCCCUGGCCUAGCCCCUUCCACUUCCCAUAAUUCUUGCCUCUUUCCAUAAUUCAUGGUUUCAGUUCGACUUUGUAUAUAAAGUUGUUUGUUGGUUU	0.255
UGCACUUUAACCAGCCCUGUGAUCCGUACGAGUGUAGCAGCAAGAGGACUCUGUUGACAGGCACGUUUAUUGUUGGGUUAUUUGUUCCAGAGCACCCCAGUCUGUGACAA	2.42
UCACACUUUGCUUGUAUUUUAAAAGGAGGAUAUAUUUGCACUUAUGUAUACUUUUACAGUUUGCCAAAAUAUUUUGUUGUAAAAUUUUUUUUCAAUAAAAUGUAUAUAAC	26.1
AGUAGCCGUUUGUGGUUUAAAGCAAACAUGCAAGAUGAACCUGAGGGAUGAUAGAAUACAAAGAAUAUAUUUUUGUUAUGGCUGGUUACCACCAGCCUUUCUUCCCCUUU	0.259
GUGAGGGCUCCGGGUGGUGCUAUGACGUGGAACUGGAUAUUGAGUAAUAAAUUUGCUGUGGUUUGUACCCGGUGUUGUCUGUUGCCUGGAAGUUGGGAAGCUGAGUUACU	1.2
AGUUUGUGGCUUCAUGGAAACUCCCUGUAAACUAAAAGCUUCAGGGUUAUGUCUAUGUUCAUUCUAUAGAAGAAAUGCAAACUAUCACUGUAUUUUAAUAUUUGUUAUUC	0.694

Sample 2
Target: Ras GTPase-activating protein-binding protein 1, C-terminal RGG region (G3BP1, Homo sapiens, UniProt Q13283)
Chain of UniProt Q13283 (whole entry, looked up): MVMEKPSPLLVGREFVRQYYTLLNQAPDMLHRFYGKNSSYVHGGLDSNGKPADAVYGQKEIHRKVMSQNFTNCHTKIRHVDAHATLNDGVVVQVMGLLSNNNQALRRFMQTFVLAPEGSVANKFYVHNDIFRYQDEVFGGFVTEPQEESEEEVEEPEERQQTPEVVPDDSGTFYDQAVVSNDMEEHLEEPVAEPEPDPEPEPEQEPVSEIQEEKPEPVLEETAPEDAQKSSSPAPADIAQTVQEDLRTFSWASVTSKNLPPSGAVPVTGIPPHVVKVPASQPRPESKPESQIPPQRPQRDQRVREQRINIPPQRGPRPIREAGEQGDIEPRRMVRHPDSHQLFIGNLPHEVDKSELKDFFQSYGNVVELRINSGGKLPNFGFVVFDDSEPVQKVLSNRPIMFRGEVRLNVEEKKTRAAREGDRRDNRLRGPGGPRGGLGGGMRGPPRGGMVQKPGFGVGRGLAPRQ
Technique: RNA Bind-n-Seq
Molecule type: RNA
Sample: in vitro
Concentration: 1 µM
Setting: whole 134-nt RNA, ends assumed
Together with: 150 mM KCl
Reference: input library
Direction: higher = stronger binding
All sequences stand within: GGGAGUUCUACAGUCCGACGAUC … UGGAAUUCUCGGGUGUCAAGG
Sequence	log2 enrichment
UUGUGGAAAGGAGGAGAACCCCUGCUGAAAUUCGAGAGGAGUUUGAGCGGCUGCAGAGAGAGAGAGAAGAGAGGAGAUUGCAGCAGCGAA	-1.86
CAAGUCCUGUGCUACACAUCGUAUGUACCGAAUCGGGGAAAGGGGAGGGGUGGGGAAAGUAUUAUGUUACGCCGUUCGGAUCUGCACUUC	3.06
UCAAGUCCUGUGCUACACAUCGUAUGUACCGAAUCGGGUGGGAAAAAGGGAGGGAAAGUAUUAUGUUACGCCGUUCGGAUCUGCACUUCC	1.72
UCAAGUCCUGUGCUACACAUCGUAUGUACCGAAUCGGAGGAAAAAGGAAAAAGGAAAGUAUUAUGUUACGCCGUUCGGAUCUGCACUUCC	-1.41
CUGUGCUACACAUCGUAUGUACCGAAUCGGCCCCCCCGGGCCCCCCCGGGGCCCCCCCGGGGAAAGUAUUAUGUUACGCCGUUCGGAUCU	-2.42

Sample 3
Target: Interferon regulatory factor 7, full length, phosphomimetic (IRF7, Homo sapiens, UniProt Q92985, residues 1-503, S101K/S471D/S472D/S475D/S476D/S477D/S483D/S484D/S487D)
Chain of UniProt Q92985 (whole entry, unmodified, looked up): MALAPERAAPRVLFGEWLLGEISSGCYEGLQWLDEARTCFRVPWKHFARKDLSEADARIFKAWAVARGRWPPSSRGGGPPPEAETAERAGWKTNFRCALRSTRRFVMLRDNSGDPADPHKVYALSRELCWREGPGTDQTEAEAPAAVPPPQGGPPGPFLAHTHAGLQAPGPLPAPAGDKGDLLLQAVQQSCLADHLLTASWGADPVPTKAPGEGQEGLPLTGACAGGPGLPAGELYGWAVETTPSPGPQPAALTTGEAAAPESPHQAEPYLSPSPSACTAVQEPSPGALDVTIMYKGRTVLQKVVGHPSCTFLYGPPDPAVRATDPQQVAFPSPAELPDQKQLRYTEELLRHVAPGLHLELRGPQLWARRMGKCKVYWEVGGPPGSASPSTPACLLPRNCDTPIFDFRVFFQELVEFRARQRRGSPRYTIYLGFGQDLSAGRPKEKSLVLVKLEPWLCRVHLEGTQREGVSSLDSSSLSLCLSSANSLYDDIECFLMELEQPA
Technique: protein-binding microarray
Molecule type: double-stranded DNA, one strand shown
Sample: in vitro
Concentration: 250 nM
Setting: 60-bp whole probe
Together with: salmon DNA 0.4 mg/ml
Reference: random background probes
Direction: higher = stronger binding
All sequences stand within: GCCTAGCAC … GTCTTGATTCGCTTGACGCTGCTG
Sequence	log fluorescence
TGTTGTCTTAGATTCCTTTGGTGCTAG	1.11 z-score
TTAGGTTTCCTTTTACTTTAGTGCTAG	8.21 z-score
GATGGACTGGGACTGGGGACGTGCTAG	-0.361 z-score
GCGATCCTCTCACCTCAGCCTGTGCTA	-0.0555 z-score
GACGATTTCAGTTGCGAGACGTGCTAG	0.345 z-score
GACGGTTTCGACACTGGGAACGTGCTA	4.33 z-score
CCTGGCTTCATGTTGCTCTCCGTGCTA	-0.655 z-score
TTAGGTTTTGGGTTTCGGTTAGTGCTA	7.24 z-score
GACGAACTGAGTATCTAGACGTGCTAG	-0.407 z-score
TCAATTTACATTTTAGTACTGTGCTAG	0.678 z-score
TGAGGTCTCCTTATCCTTTAGTGCTAG	-0.0946 z-score
TAAGGTATCGGGTTTCGGTTAGTGCTA	7.5 z-score
TCAGTTTCTCCTTTCCAACTGTGCTAG	4.26 z-score

Sample 4
Target: Histone acetyltransferase KAT6A, winged helix 1, GST fusion (KAT6A, Homo sapiens, UniProt Q92794, residues 1-85)
Technique: protein binding microarray
Molecule type: double-stranded DNA, one strand shown
Sample: in vitro
Concentration: not given
Setting: 8-mer, flanks averaged, mean of 2 arrays, mostly near background
Reference: not given
Direction: higher = stronger binding
Residues (chain): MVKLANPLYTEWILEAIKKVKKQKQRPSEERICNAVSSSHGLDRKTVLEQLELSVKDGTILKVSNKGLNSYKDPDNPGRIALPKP
Sequence	E-score
AGTATACG	0.0543
GGTCGCCA	0.074
GCACGCGA	0.19
CGCGGCTC	0.415
CCTCCGCG	0.368
ACCAATTA	-0.166
CAACCACA	-0.189
ACAGGCCA	-0.165
GTTCCGGA	-0.0644
ATCAGTGC	-0.122
GATAGATC	-0.0304
ACATCGTC	-0.181
ATCTCTGG	-0.186
ATTTTCCG	0.163
GAAAGAGA	-0.137
GATTGGGC	-0.0444
AATGATGA	-0.24
CAAAGTGA	-0.156

Some of these lines once more (sample 3):
Sequence	log fluorescence
TCAATTTACATTTTAGTACTGTGCTAG	0.678 z-score
TCAGTTTCTCCTTTCCAACTGTGCTAG	4.26 z-score
TGTTGTCTTAGATTCCTTTGGTGCTAG	1.11 z-score
TTAGGTTTCCTTTTACTTTAGTGCTAG	8.21 z-score
GATGGACTGGGACTGGGGACGTGCTAG	-0.361 z-score
TTAGGTTTTGGGTTTCGGTTAGTGCTA	7.24 z-score
